Results collected from several papers.
Protocols differ between the studies behind these lines. Values joined by “and” are separate records of one study, mostly repeats; a detail may differ. Values after ≈ are worked out from the molar mass of the structure shown.

CCn1nc(C)c(CN2CCCC(C(=O)c3cccc(OC(C)C)c3)C2)c1C (stereo not drawn) — translation activity (Trypanosoma cruzi; reporter mRNA translation, inhibitor, measured: Renilla luciferase mRNA; cell-free extract; concentration not given, test 1; reference: positive over negative control): 111% and 114%
O=c1[nH]cc(C(c2ccc(Cl)cc2)c2c[nH]c(=O)[nH]c2=O)c(=O)[nH]1 — inhibition (HIV-1 subtype C; p24 antigen production, p24 ELISA; 31.25 µg/mL): 30%
COC1C=COC2(C)Oc3c(C)c(O)c4c(c3C2=O)C2=NC3(CCN(CC(C)C)CC3)NC2=C(NC(=O)C(C)=CC=CC(C)C(O)C(C)C(O)C(C)C(OC(=O)Nc2cscn2)C1C)C4=O (stereo not drawn) — IC90 (Mycobacteroides abscessus; intracellular growth, Hill fit; THP-1 derived macrophages, ATCC 19977): 220 nM
Cc1ccccc1C(c1c[nH]c(=O)[nH]c1=O)c1c[nH]c(=O)[nH]c1=O — inhibition (HIV-1 subtype C; p24 antigen production, p24 ELISA; 500 µg/mL): 78%
C=C(NC(=O)c1csc(-c2nc3c(cc2O)-c2nc(cs2)C(=O)NC(C(C)O)C(=O)NC(=C(C)OC)c2nc(cs2)C(=O)NC2c4nc(cs4)C(=O)NC(COC(=O)c4c5c6c(cccc6n4O)COC(=O)C(OC4CC(C)(O)C(N(C)C)C(C)O4)C2OC5)c2nc-3cs2)n1)C(N)=O (stereo not drawn) — MIC50 (Streptococcus pyogenes; 10 isolates; serum 75%): 0.0156 µg/mL (≈ 0.0109 µM)
Nc1nc(-c2ccc(C(F)(F)F)cc2)nc2[nH]nc(Nc3ccc(F)cc3)c12 — IC50 (rhinovirus B5; viral cytopathic effect; HeLa): 3320 nM
O=c1[nH]cc(C(c2ccccc2Br)c2c[nH]c(=O)[nH]c2=O)c(=O)[nH]1 — inhibition (HIV-1 subtype C; p24 antigen production, p24 ELISA; 1.95 µg/mL): < 25%
COc1ccc(C(=O)OC2CCN(C)CC2)cc1 — translation activity (Trypanosoma cruzi; reporter mRNA translation, inhibitor, measured: Renilla luciferase mRNA; cell-free extract; concentration not given, test 3; reference: positive over negative control): 103%
CC1=C[C@@H](O/C=C2/C(=O)O[C@H]3c4ccccc4C[C@@H]23)OC1=O — maximum germination (Arabidopsis thaliana; Col-0): 80%
COc1ccc(CNc2nc([C@H]3CC[C@H](C(=O)O)CC3)nc3sc4ccccc4c23)cc1Cl — parasite vacuole ratio (Cryptosporidium parvum; egress and reinvasion; HCT-8; 2 x EC90, 19.5 h, compound added 6 h postinfection; reference: vacuoles at 6 h): 1.14 and 1.04 and 1.05
Cc1cccc2c1N(C(=O)n1ccnn1)CC2 — hypocotyl length (Arabidopsis thaliana; wild type; 3 µM, seedlings): 10.8 mm
COc1cc(C(=O)Nc2ccc(C(=O)O)c(O)c2OC)ccc1NC(=O)c1ccc(NC(=O)[C@H](Cc2c[nH]nn2)NC(=O)c2ccc(NC(=O)/C(C)=C/c3ccc(O)cc3)cc2)cc1 — MIC (Salmonella enterica serovar Kentucky; broth microdilution; ciprofloxacin-resistant): 1 µg/mL (≈ 1.15 µM)
O=c1[nH]cc(C(c2cccc(Cl)c2)c2c[nH]c(=O)[nH]c2=O)c(=O)[nH]1 — inhibition (HIV-1 subtype C; p24 antigen production, p24 ELISA; 1.95 µg/mL): < 25%
CNS(=O)(=O)Nc1nccc(Cc2c(C)c3ccc(Oc4ncccc4F)cc3oc2=O)c1F — IC50 (Aska-SS; cell viability, CellTiter-Glo; 7 days): > 1000 nM
COc1c(NC(=O)c2ccc(NC(=O)[C@H](Cc3c[nH]nn3)NC(=O)c3ccc(NC(=O)/C(C)=C/c4ccc(O)cc4)cc3)cc2)ccc(C(=O)Nc2ccc(C(=O)O)c(O)c2)c1O — MIC (Salmonella enterica serovar Kentucky; broth microdilution; ciprofloxacin-resistant): 0.25 µg/mL (≈ 0.292 µM)

For quick reference, copied from above:
C=C(NC(=O)c1csc(-c2nc3c(cc2O)-c2nc(cs2)C(=O)NC(C(C)O)C(=O)NC(=C(C)OC)c2nc(cs2)C(=O)NC2c4nc(cs4)C(=O)NC(COC(=O)c4c5c6c(cccc6n4O)COC(=O)C(OC4CC(C)(O)C(N(C)C)C(C)O4)C2OC5)c2nc-3cs2)n1)C(N)=O (stereo not drawn) — MIC50 (Streptococcus pyogenes; 10 isolates; serum 75%): 0.0156 µg/mL (≈ 0.0109 µM)
O=c1[nH]cc(C(c2ccccc2Br)c2c[nH]c(=O)[nH]c2=O)c(=O)[nH]1 — inhibition (HIV-1 subtype C; p24 antigen production, p24 ELISA; 1.95 µg/mL): < 25%
